Assay results pooled from the literature.
Each line is one published result; not all experiments were run side by side. Numbers after ± are the reported error.
HTR2A: 5-hydroxytryptamine receptor 2A (HTR2A, Homo sapiens, UniProt P28223)
CNR1: Cannabinoid receptor 1 (CNR1, Homo sapiens, UniProt P21554)
histidine kinase ComD: histidine kinase ComD (Streptococcus pneumoniae serotype 2, UniProt A0A0H2ZM50)

The EC50 of `CCCN(CCC)CCc1c[nH]c2ccccc12` is reported as 0.0261 µM (HTR2A; calcium signal, agonist).
`CC1(Cc2ccccc2)COc2cc(C(=O)N3CCCCC3)ccc21` (centres unmarked) gave an EC50 of over 10 µM (CNR1; GTPγS binding, agonist; cell membranes).
With `Nc1ncnc2c1ncn2[C@@H]1O[C@H](COP(=O)(O)OP(=O)(O)OP(=O)(O)O)[C@@H](O)[C@H]1O` the EC50 was 0.59 µM (cAMP-dependent protein kinase catalytic subunit alpha (Prkaca, Mus musculus, UniProt P05132); binding of FAM-SMO peptide, activator, fluorescence polarization; pH 7).
`CC[C@H](C)[C@H](NC(=O)[C@@H](N)CCC(=O)O)C(=O)N[C@@H](CCCNC(=N)N)C(=O)N[C@@H](CCC(N)=O)C(=O)N[C@H](C(=O)N[C@@H](Cc1c[nH]cn1)C(=O)N[C@@H](Cc1ccccc1)C(=O)N[C@@H](Cc1ccccc1)C(=O)N[C@@H](Cc1ccccc1)C(=O)N[C@@H](Cc1ccccc1)C(=O)N[C@@H](CC(N)=O)C(=O)N[C@@H](Cc1ccccc1)C(=O)N[C@@H](Cc1ccccc1)C(=O)N[C@@H](CCCCN)C(=O)N[C@@H](CCCNC(=N)N)C(=O)N[C@@H](CCCNC(=N)N)C(=O)O)[C@@H](C)O` gave an EC50 of over 10 µM (histidine kinase ComD; reporter gene, agonist; Streptococcus pneumoniae, D39 comX::lacZ; 30 min, pH 7.3, 37 °C).
`CC[C@H](C)[C@H](NC(=O)[C@H](Cc1ccccc1)NC(=O)[C@H](CC(=O)O)NC(=O)[C@H](CC(C)C)NC(=O)[C@@H](NC(=O)[C@@H](NC(=O)[C@H](CCCNC(=N)N)NC(=O)[C@H](CO)NC(=O)[C@@H](NC(=O)[C@H](CCCNC(=N)N)NC(=O)[C@H](CCSC)NC(=O)[C@@H](N)CCC(=O)O)[C@@H](C)CC)[C@@H](C)CC)[C@@H](C)CC)C(=O)N[C@@H](Cc1ccccc1)C(=O)N[C@@H](CCC(N)=O)C(=O)N[C@@H](CCCNC(=N)N)C(=O)O` has an EC50 of over 1 µM (histidine kinase ComD; Streptococcus pneumoniae).
For `Cc1ncsc1-c1ccc([C@H](C)NC(=O)[C@@H]2C[C@@H](O)CN2C(=O)[C@@H](NC(=O)CNC(=O)c2ccc(F)c(-c3ccc(N4C[C@@H](C)N(C)[C@@H](C)C4)c(NC(=O)c4c[nH]c(=O)cc4C(F)(F)F)c3)c2)C(C)(C)C)cc1`, the EC50 was 0.0038 ± 0.001 µM (WDR5/DCAF1 (Homo sapiens, UniProt P61964+Q9Y4B6); HiBiT-WDR5 degradation, degrader; MV4-11 expressing exogenous HiBiT-WDR5; 24 h).
`CC[C@H](C)[C@H](NC(=O)[C@H](Cc1ccccc1)NC(=O)[C@H](CC(=O)O)NC(=O)[C@H](CC(C)C)NC(=O)[C@@H](NC(=O)[C@@H](NC(=O)[C@H](CCCNC(=N)N)NC(=O)[C@H](CO)NC(=O)[C@H](CC(C)C)NC(=O)[C@H](CCCNC(=N)N)NC(=O)[C@H](CCSC)NC(=O)[C@@H](N)CCC(=O)O)[C@@H](C)CC)[C@@H](C)CC)C(=O)N[C@@H](Cc1ccccc1)C(=O)N[C@@H](CC(C)C)C(=O)N[C@@H](CCCNC(=N)N)C(=O)O` gave an EC50 of over 1 µM (histidine kinase ComD; Streptococcus pneumoniae).
`[Cl-].[Cl-].[Zn+2]` gave an EC50 of about 20 µM (Glutamate receptor ionotropic, kainate 3 (Rattus norvegicus, UniProt P42264); ion current, positive modulator, whole-cell patch clamp; HEK293 cells; biphasic dose-response curve, added: glutamate 10 mM).
The EC50 of `CC(C)[C@H](NC(=O)[C@@H]1CSSC[C@H](NC(=O)[C@H](CC(N)=O)NC(=O)[C@@H](N)CCCCN)C(=O)N[C@@H](Cc2ccccc2)C(=O)N[C@H](Cc2c[nH]c3ccccc23)C(=O)N[C@@H](CCCCN)C(=O)N[C@@H]([C@@H](C)O)C(=O)N1)C(=O)O` is reported as 0.13 µM (Somatostatin receptor type 1 (SSTR1, Homo sapiens, UniProt P30872)).
For `CC[C@H](C)[C@H](NC(=O)[C@H](CCCNC(=N)N)NC(=O)[C@H](CCSC)NC(=O)[C@@H](N)CCC(=O)O)C(=O)N[C@@H](CO)C(=O)N[C@@H](CCCNC(=N)N)C(=O)N[C@H](C(=O)N[C@H](C(=O)N[C@@H](CC(C)C)C(=O)N[C@@H](CC(=O)O)C(=O)N[C@@H](Cc1ccccc1)C(=O)N[C@@H](CC(C)C)C(=O)N[C@@H](CC(C)C)C(=O)N[C@@H](CCC(N)=O)C(=O)N[C@@H](CCCNC(=N)N)C(=O)O)[C@@H](C)CC)[C@@H](C)CC`, the EC50 was over 1 µM (histidine kinase ComD; Streptococcus pneumoniae).
`CCN(CC)CCc1c[nH]c2ccccc12` has an EC50 of 0.0678 µM (HTR2A; calcium signal, agonist).
`C[C@@]1(O)CC[C@@]2(C)[C@@H](CC[C@@H]3[C@@H]2CC[C@]2(C)[C@@H](c4cc(CO)on4)CC[C@@H]32)C1` gave an EC50 of 0.63 ± 0.05 µM (GABA A receptor alpha-1/beta-1/gamma-2 (Homo sapiens, UniProt P14867+P18505+P18507); GABA current potentiation, positive modulator, two-electrode voltage clamp; Xenopus laevis oocytes; 30 s preincubation, added: GABA EC10).
With `CCCCC/C=C\C/C=C\C/C=C\C/C=C\CCCC(=O)NCC(=O)O` the EC50 was 2.78 ± 0.06 µM (Sterol carrier protein 2 (Homo sapiens, UniProt P22307); NBDS displacement, fluorescent probe displacement; 50% of maximum displacement, added: NBDS 500 nM).
`CCCC(=O)N[C@H]1CCOC1=O` has an EC50 of 30.6 µM (HTH-type quorum-sensing regulator RhlR (rhlR, Pseudomonas aeruginosa, UniProt P54292); reporter gene, agonist; PAO-JP2 prhlI-LVAgfp; added: OdDHL 100 nM).
With `CCCCCCCCCCC#CCCCCC(=O)O` the EC50 was 71.7 ± 3.8 µM (DNA topoisomerase IB (Leishmania donovani, UniProt A0A3Q8IHS4+Q8WQM6); DNA relaxation activity, inhibitor; 30 min, 37 °C).
`CC(C)N(CCc1c[nH]c2ccccc12)C(C)C` has an EC50 of 0.0335 µM (HTR2A; calcium signal, agonist).
With `CC(C)Oc1ccccc1-n1c(CN2CCN(C(=O)COc3ccc(Cl)cc3)CC2)nc2ccccc2c1=O` the EC50 was 4.78 ± 1.74 µM (Slc7a11 (Rattus norvegicus, UniProt A0A8I6AB70); cystine uptake, inhibitor; rat primary microglia; 15 min, added: LPS, [14C]-cystine).
`COC(=O)c1ccc2c(C(CC(F)(F)F)c3cccs3)c(-c3ccccc3)[nH]c2c1` (single isomer, unassigned; (+)) gave an EC50 of 0.16 ± 0.147 µM (CNR1; positive allosteric modulator; added: EC20 CP 55940).
`COc1ccc2[nH]cc(CCN)c2c1` gave an EC50 of 0.183 µM (5-hydroxytryptamine receptor 1A (HTR1A, Homo sapiens, UniProt P08908); calcium signal, agonist).
`CN[C@@](C)(C[18F])C(=O)O` gave a tissue uptake of 9.3 ± 1.3 %ID/g (SCID mouse MDA-MB-468 xenograft, spleen; 60 min, post injection).
